Published values collected from several papers.
Protocols differ between the studies behind these lines. Values joined by “and” are separate records of one study, mostly repeats; a detail may differ. ± marks the error that the study gave.
TOP2A: DNA topoisomerase 2-alpha (TOP2A, Homo sapiens, UniProt P11388)
ZBTB11/CRBN: ZBTB11/CRBN (Homo sapiens, UniProt O95625+Q96SW2)
T1: riboswitch RNA yjdF aptamer (Bacillus subtilis); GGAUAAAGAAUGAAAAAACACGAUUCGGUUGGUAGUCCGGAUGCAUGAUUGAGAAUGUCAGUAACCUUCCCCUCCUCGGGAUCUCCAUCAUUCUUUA

| SMILES | target | test | system | setting | scale | endpoint | result |
| --- | --- | --- | --- | --- | --- | --- | --- |
| O=C(COP(=O)(O)O)[C@@H](O)[C@H](O)[C@H](O)COP(=O)(O)O | STK24 (Homo sapiens, UniProt Q9Y6E0) | thermal proteome profiling | HepG2 cell lysate | concentration not given, 57 over 37 °C, mean | reference: compound over control | thermal stability ratio | 0.618 |
| N#Cc1ccc2c(CN3CCOCC3)cc(-c3ccc([C@@H]4CCC(=O)N4)cc3)nc2c1 | Advanced glycosylation end product-specific receptor, with DIAPH1 (AGER, Homo sapiens, UniProt Q15109) | acceptor photobleaching | HEK-293T expressing RAGE-eCFP | 0.1 µM, 60 min |  | FRET efficiency | 4.5 ± 0.3% |
| O=C(O)CCC(=O)c1ccc2c(c1)CCC(=O)N2 | Ubiquitin carboxyl-terminal hydrolase 49, ZnF-UBD domain (USP49, Homo sapiens, UniProt Q70CQ1) |  |  |  |  | Kd | 99.9 µM |
| [H]/N=C(/N)NCC(=O)O | SLC6A6 (Homo sapiens, UniProt P31641, L306A) | binding, microscale thermophoresis |  | 250 µM, room temperature, with: 50 nM labelled protein | higher = more binding | normalised MST signal | -0.0141 |
| CC[C@@H]1[C@H](F)C(=O)N[C@@H]1COc1nccc2cc(C(N)=O)c(OC)cc12 | CSNK1G2 (Homo sapiens, UniProt P78368) | ATP-site probe binding, ActivX profiling | THP-1 cell lysate | 0.04 mM, Lys2 site |  | inhibition | 27.3% |
| O=c1nc(SCc2cc(F)cc(C(F)(F)F)c2)nc(SCc2csc3ccc(Cl)cc23)[nH]1 | TOP2A | DNA cleavage |  | 125 µM, replicate 1 |  | linear DNA | 11.4% |
| N#CSCc1cc(=O)oc2cc(O)ccc12 | CA12 (Homo sapiens, UniProt O43570) | stopped-flow CO2 hydration |  |  | reference: Ki CA II over Ki CA XII | selectivity ratio | > 4240 |
| C=CC(=O)N1CCC(COCC(=O)N2CCN(c3nc(-c4cnc(N)nc4C(F)F)nc(N4CCOC[C@@H]4C)n3)CC2)CC1 | Mast/stem cell growth factor receptor Kit, autoinhibited (KIT, Homo sapiens, UniProt P10721) | KINOMEscan |  | 1 µM |  | remaining binding | 63% |
| CC(C)(NCCCc1ccc(C(F)(F)F)c(Cl)c1)c1cccc(NC2=CC(=O)N(C3CCC(=O)NC3=O)C2=O)c1 (stereo not drawn) | ZBTB11/CRBN | protein degradation, degrader, HiBiT luminescence | MOLT-4 |  |  | Dmax | 32% |
| COc1cc(-c2cncc3c2CN(C)Cc2cc(N4CCNCC4)ccc2-3)cc(OC)c1OC | KIT (Homo sapiens, UniProt P10721, V654A) | kinase activity |  | 1 µM, with: ATP 10 µM | reference: DMSO control | remaining activity | 89% |
| O=C(O)c1cccc(-c2noc(-c3ccccc3F)n2)c1 | BLVRB (Homo sapiens, UniProt P30043) | binding |  |  |  | kon | 3110 M⁻¹ s⁻¹ |
| CCS(=O)(=O)N1CC(CC#N)(n2cc(-c3ncnc4[nH]ccc34)cn2)C1 | ORM1 (Homo sapiens, UniProt P02763) | fluorescence quenching |  | 293 K |  | Gibbs free energy | -6.12 kcal/mol |
| Nc1nc2c(ncn2[C@@H]2O[C@H](COP(=O)(O)O)[C@@H](O)[C@H]2O)c(=O)[nH]1 | GUK1 (Homo sapiens, UniProt Q16774) | enzyme activity, NADH-coupled |  | 7.812 µM |  | reaction rate | 17.1 s⁻¹ and 11.4 s⁻¹ and 0.619 s⁻¹ |
| CN1CCN(C(=O)c2cccc(-c3nc(N)nc(-c4ccccc4O)n3)c2)CC1 | human adenosine A2A receptor Y271A | biophysical mapping |  | concentration not given | reference: wild type | pKD change | -0.1 |
| CCC1(O)CCCN(C(=O)c2ccc(-c3ccc(F)c(NC(=O)CCl)c3)cc2)C1 (stereo not drawn) | DNA dC->dU-editing enzyme APOBEC-3B, C-terminal domain (Homo sapiens, UniProt Q9UH17) | covalent modifier, intact protein mass spectrometry |  | 125 µM, 3 h, 5-fold molar excess |  | unmodified protein | 28% and 19% |
| N=c1n(CCN2CCCCC2)c2ccccc2n1CC(O)c1cccc(Br)c1 (stereo not drawn) | CatSper channel complex (Homo sapiens, UniProt Q7RTX7+Q86XQ3+Q8NEC5+Q96P56) | ion current, whole-cell patch clamp | human sperm | 10 µM, at -80 mV |  | inward current density | -15 ± 3 pA/pF |
| N#Cc1ccn2c(-c3ccncc3)c(-c3ccc(F)cc3)nc2c1 | NLK (Homo sapiens, UniProt Q9UBE8) | NanoBRET | HEK293 | 1.0 µM |  | receptor occupancy | 40 to 70% |

| SMILES | target | test | system | setting | scale | endpoint | result |
| --- | --- | --- | --- | --- | --- | --- | --- |
| Nc1ncnc2c1ncn2C1CCCC1 | Inositol-tetrakisphosphate 1-kinase (Homo sapiens, UniProt Q13572) | binding, microscale thermophoresis |  | highest compound concentration, with: increasing ATP | reference: no ATP | fold increase in apparent Kd | ~40 fold |
| COc1cc(-c2cc(C(C)=O)n3ccccc23)cc(OC)c1Cn1ccnc1 | TAF1 (Homo sapiens, UniProt P21675) |  |  |  |  | ΔTm | 1 °C |
| O=C(O)CCC(=O)Nc1cccc2ccccc12 | Ubiquitin carboxyl-terminal hydrolase 20, ZnF-UBD domain (USP20, Homo sapiens, UniProt Q9Y2K6) |  |  |  |  | Kd | > 1000 µM |
| CC[C@@H](C)[C@@H](NC(=O)[C@@H](Cc1ccc(O)cc1)NC(=O)[C@H]1CCCN1C(=O)[C@@H](CCCNC(=N)N)NC(=O)[C@H](N)Cc1c[nH]cn1)C(=O)N[C@H](C)C(=O)N[C@H](Cc1c[nH]cn1)C(=O)N[C@H](CCCNC(=N)N)C(=O)N[C@@H](C(=O)N[C@H](Cc1ccc(O)cc1)C(=O)N[C@H](CO)C(=O)N[C@H](Cc1ccccc1)C(N)=O)C(C)C | Transferrin receptor protein 1 (Tfrc, Mus musculus, UniProt Q62351) | flow cytometry | RAW264.7 | 2 h, pH 7.4, unit not given | reference: 0 h | surface TFRC expression | 0.991 |
| O=c1nc(SCc2ccc(C(F)(F)F)cc2)nc(SCc2csc3ccc(Cl)cc23)[nH]1 | TOP2A | decatenation |  | 7.8 µM |  | mean decatenated DNA | 96.4% |
| CC[C@H](C)[C@@H]1NC(=O)[C@H](C)NC(=O)[C@H]([C@@H](C)CC)NC(=O)[C@H](CCC(N)=O)NC(=O)[C@H](C)NC(=O)[C@H](CCCNC(=N)N)NC(=O)[C@H](C(C)C)NC(=O)[C@H](CC(C)C)NC(=O)[C@H](CCC(=O)O)NC(=O)[C@H](CCCNC(=N)N)NC(=O)CNC(=O)[C@@H](NC(=O)[C@H](CC(C)C)NC(=O)[C@H](CCCCN)NC(=O)[C@@H](NC(=O)[C@@H](NC(=O)[C@H](CCC(=O)O)NC(=O)[C@H](CCC(=O)O)NC(=O)[C@H](CCSC)NC(=O)[C@H](Cc2c[nH]c3ccccc23)NC(=O)[C@H](CO)NC(=O)[C@@H](N)CC(=O)O)C(C)C)[C@@H](C)CC)CSSC[C@@H]2NC(=O)[C@@H](NC(=O)[C@H](CCCCN)NC(=O)[C@H](CC(N)=O)NC(=O)[C@H](C)NC(=O)[C@H](CC(C)C)NC(=O)[C@H](C)NC(=O)[C@H](CO)NC(=O)[C@H](Cc3ccc(O)cc3)NC(=O)[C@H](CC(C)C)NC(=O)[C@H](CCC(N)=O)NC(=O)c3ccc(-c4c5ccc(=[N+](C)C)cc-5oc5cc(N(C)C)ccc45)c(C(=O)[O-])c3)CSSC[C@H](NC(=O)CNC(=O)[C@H](C(C)C)NC(=O)[C@H](Cc3c[nH]cn3)NC2=O)C(=O)N[C@@H]([C@@H](C)O)C(=O)N[C@@H](CCCCN)C(=O)N[C@@H](CCCNC(=N)N)C(=O)N[C@@H](CO)C(=O)N[C@@H](CC(C)C)C(=O)N[C@@H](C)C(=O)N[C@@H](CCCNC(=N)N)C(=O)N[C@@H](Cc2ccccc2)C(=O)N[C@H](C(=O)O)CSSC[C@@H](C(=O)NCC(=O)N[C@@H](CCSC)C(=O)N[C@@H](CO)C(=O)N[C@H](C(=O)N[C@@H](Cc2c[nH]c3ccccc23)C(=O)N[C@@H](CO)C(=O)O)[C@@H](C)O)NC1=O | Relaxin receptor 1 (RXFP1, Homo sapiens, UniProt Q9HBX9, F76A/Y80A) | dissociation, NanoBRET |  | with: relaxin 10 µM |  | koff slow phase | 0.000837 s⁻¹ |
| COC(=O)c1cn(C)c2ccc(-c3cccnc3)cc12 | NR1D1 (Homo sapiens, UniProt P20393) | reporter gene, Gal4 hybrid reporter |  | 10 µM | reference: vehicle | activation | 1.29 fold |
| CC(=O)c1c(C)c2cnc(Nc3ccc(N4CCN(CCCOc5ccc(CN6CCC(c7ccc8c(c7)CN(C7CCC(=O)NC7=O)C8=O)CC6)cc5)CC4)cn3)nc2n(C2CCCC2)c1=O (stereo not drawn) | CDK4 (Homo sapiens, UniProt P11802) | protein degradation, degrader, immunoblot | Jurkat | 4 h |  | Dmax | 45% |
| CC(C)CC[C@@H](O)[C@@H](C)[C@H]1CC[C@H]2[C@@H]3CC=C4C[C@@H](O)CC[C@]4(C)[C@H]3CC[C@]12C | CYP11A1 (Homo sapiens, UniProt P05108) | substrate binding saturation |  | with: adrenodoxin 40-fold excess | reference: without adrenodoxin | ΔAmax increase | ~1.3 fold |
| N[C@@H](Cc1ccc(O)cc1)C(=O)Nc1ccc2ccccc2c1 | rat neuron-specific aminopeptidase | substrate |  | MW 110 kDa |  | kcat | 11.2 s⁻¹ |
| O=S(=O)(O)C(O)c1ccccn1 (stereo not drawn) | GLO2 (Arabidopsis thaliana, UniProt Q9LRS0) | mixed inhibitor, o-dianisidine coupled |  | 0.05 µM, with: glycolate 0.1-5 mM |  | Vmax decrease | 70% |
| CCC(C)(NCCc1ccc(C(F)(F)F)cc1)c1cccc(NC2=CC(=O)N(C3CCC(=O)NC3=O)C2=O)c1 (stereo not drawn) | ZBTB11/CRBN | protein degradation, degrader, HiBiT luminescence | MOLT-4 |  |  | Dmax | 47% |
| Cc1cc2nc3[nH]c(=O)[nH]c(=O)c3nc2cc1C | T1, riboswitch RNA yjdF aptamer (Bacillus subtilis) | fluorescence titration |  | with: 380 nM lumichrome |  | Kd | 0.05 µM |
| [2H]c1cc(C)c(NC(=O)c2cnc(Nc3cc(N4CCCCC4)nc(C)n3)s2)c(Cl)c1 | YES1 (Homo sapiens, UniProt P07947) |  |  | 0.0001 µM |  | inhibition | > 50% |
| CN(C)CC#Cc1ccc2[nH]c3c(c2c1)-c1nc(N)ncc1CCC3 | IRAK3 (Homo sapiens, UniProt Q9Y616) | DiscoverX scanMAX |  | 1 µM | reference: untreated control | remaining binding | 9.2% |
| COc1cc(Nc2ncc3c(n2)-c2ccc(Cl)cc2C(c2c(F)cccc2OC)=NC3)ccc1C(=O)O | MUSK | kinase activity |  | 1 µM |  | remaining activity | 48% |

A few entries again:
| SMILES | target | test | system | setting | scale | endpoint | result |
| --- | --- | --- | --- | --- | --- | --- | --- |
| CC[C@@H](C)[C@@H](NC(=O)[C@@H](Cc1ccc(O)cc1)NC(=O)[C@H]1CCCN1C(=O)[C@@H](CCCNC(=N)N)NC(=O)[C@H](N)Cc1c[nH]cn1)C(=O)N[C@H](C)C(=O)N[C@H](Cc1c[nH]cn1)C(=O)N[C@H](CCCNC(=N)N)C(=O)N[C@@H](C(=O)N[C@H](Cc1ccc(O)cc1)C(=O)N[C@H](CO)C(=O)N[C@H](Cc1ccccc1)C(N)=O)C(C)C | Transferrin receptor protein 1 (Tfrc, Mus musculus, UniProt Q62351) | flow cytometry | RAW264.7 | 2 h, pH 7.4, unit not given | reference: 0 h | surface TFRC expression | 0.991 |
| O=S(=O)(O)C(O)c1ccccn1 (stereo not drawn) | GLO2 (Arabidopsis thaliana, UniProt Q9LRS0) | mixed inhibitor, o-dianisidine coupled |  | 0.05 µM, with: glycolate 0.1-5 mM |  | Vmax decrease | 70% |
| Nc1ncnc2c1ncn2C1CCCC1 | Inositol-tetrakisphosphate 1-kinase (Homo sapiens, UniProt Q13572) | binding, microscale thermophoresis |  | highest compound concentration, with: increasing ATP | reference: no ATP | fold increase in apparent Kd | ~40 fold |
